Results collected from several papers.
Protocols differ between the studies behind these lines.
PIK3CA E542K: Phosphatidylinositol 4,5-bisphosphate 3-kinase catalytic subunit alpha isoform (PIK3CA, Homo sapiens, UniProt P42336, E542K)
PIK3CA I800L: Phosphatidylinositol 4,5-bisphosphate 3-kinase catalytic subunit alpha isoform (PIK3CA, Homo sapiens, UniProt P42336, I800L)
PIK3CA: Phosphatidylinositol 4,5-bisphosphate 3-kinase catalytic subunit alpha isoform (PIK3CA, Homo sapiens, UniProt P42336)

| SMILES | target | assay | conditions | how to read | remaining binding [%] |
| --- | --- | --- | --- | --- | --- |
| CNC1C[S+]2CC[S+]3CC[S+](C1)[Ru-4]321([N]=C=S)[n]2c3ccc(OC)cc3c3c4c(c5cc(F)c[n+]1c5c32)C(=O)NC4=O (stereo not shown) | PIK3CA E542K | KinomeScan | 0.1 µM | baseline: untreated | 97 |
| C=CC(=O)N1CCCC(n2c(=O)c3ncccc3n(Cc3ccc(Oc4ccccc4)cc3)c2=O)C1 (stereo not shown) | PIK3CA E542K | cell-free assay, competition with immobilised ligand | 1 µM |  | 89 |
| COc1c(Cl)cccc1Nc1c(-c2ccncc2C#C[C@@]2(C)CCCN2C(=O)/C=C/CN(C)C)[nH]c2c1C(=O)NCC2 | Phosphatidylinositol 4,5-bisphosphate 3-kinase catalytic subunit alpha isoform (PIK3CA, Homo sapiens, UniProt P42336, H1047Y) | binding, competition with immobilised ligand | 3 µM |  | 73 |
| CC(C)=CC1OC(C)(C)C2C=C3C(=O)C(Cl)=CC(O)C3C3C(O)C4OC4C(=O)C132 (stereo not shown) | Phosphatidylinositol 4,5-bisphosphate 3-kinase catalytic subunit alpha isoform (PIK3CA, Homo sapiens, UniProt P42336, M1043I) | cell-free assay, competition with immobilised ligand | 10 µM |  | 70 |
| Nc1ncc2c(n1)-c1c([nH]c3ccc(C4=CCOCC4)cc13)CCC2 | Phosphatidylinositol 4,5-bisphosphate 3-kinase catalytic subunit alpha isoform (PIK3CA, Homo sapiens, UniProt P42336, H1047L) | binding, competition with immobilised ligand | 1 µM |  | 85 |
| CCN1CCN(Cc2ccc(C(=O)Nc3ccc(C)c(NCc4cnc5[nH]ccc5c4OC)c3)cc2C(F)(F)F)CC1 | Phosphatidylinositol 4,5-bisphosphate 3-kinase catalytic subunit alpha isoform (PIK3CA, Homo sapiens, UniProt P42336, E545K) | binding, competition with immobilised ligand | 1 µM |  | 62 |
| Cc1cnc2nc1Nc1cccc(c1)COC/C=C/COCc1cc(ccc1OCCN1CCOCC1)N2 | PIK3CA I800L | binding | 0.1 µM |  | 80 |
| Cc1ccc(-c2c(/C=C(\C#N)C(=O)NC(C)C)n(CCCO)c3ncnc(N)c23)cc1 | PIK3CA E542K | cell-free assay, competition with immobilised ligand | 1 µM |  | 100 |
| CC(=O)c1cnc(N)nc1N1CC[C@H]1c1nn2ccc(Cl)c2c(=O)n1-c1ccccc1 | Phosphatidylinositol 4,5-bisphosphate 3-kinase catalytic subunit alpha isoform (PIK3CA, Homo sapiens, UniProt P42336, C420R) | binding, competition with immobilised ligand | 10 µM |  | 83 |
| CN1CCN(Cc2ccc(NC(=O)c3cccc(C#Cc4cnc(N)c5ncccc45)c3)cc2C(F)(F)F)CC1 | PIK3CA | cell-free assay, competition with immobilised ligand | 50 nM |  | 84 |
| CNC(=O)C1CCN(c2cc(C)c(F)cc2NC(=O)c2ccc(-c3cc(O)ccc3C)c(C)c2)CC1 | PIK3CA I800L | binding, competition with immobilised ligand | 1 µM |  | 92 |
| C=CC(=O)N1CCc2ccc(-n3c(=O)ccc4cnc5ccc(-c6cnn(C)c6)cc5c43)cc21 | Phosphatidylinositol 4,5-bisphosphate 3-kinase catalytic subunit alpha isoform (PIK3CA, Homo sapiens, UniProt P42336, Q546K) | KINOMEscan | 1 µM | baseline: DMSO control | 81 |
| CCN1CCN(Cc2ccc(NC(=O)c3ccc(C)c(NC(=O)c4cncc(-c5cccs5)c4)c3)cc2C(F)(F)F)CC1 | PIK3CA | binding, competition with immobilised ligand | 1 µM |  | 21 |
